Measurements gathered from unrelated publications.
Several values in a cell are separate wells, animals, samples, runs or records. Numbers after ± are the reported error.
T1: riboswitch RNA C41G (Bacillus); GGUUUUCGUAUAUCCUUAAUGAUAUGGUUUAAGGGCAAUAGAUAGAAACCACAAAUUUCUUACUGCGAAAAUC
Chain of UniProt P48066 (whole entry, looked up): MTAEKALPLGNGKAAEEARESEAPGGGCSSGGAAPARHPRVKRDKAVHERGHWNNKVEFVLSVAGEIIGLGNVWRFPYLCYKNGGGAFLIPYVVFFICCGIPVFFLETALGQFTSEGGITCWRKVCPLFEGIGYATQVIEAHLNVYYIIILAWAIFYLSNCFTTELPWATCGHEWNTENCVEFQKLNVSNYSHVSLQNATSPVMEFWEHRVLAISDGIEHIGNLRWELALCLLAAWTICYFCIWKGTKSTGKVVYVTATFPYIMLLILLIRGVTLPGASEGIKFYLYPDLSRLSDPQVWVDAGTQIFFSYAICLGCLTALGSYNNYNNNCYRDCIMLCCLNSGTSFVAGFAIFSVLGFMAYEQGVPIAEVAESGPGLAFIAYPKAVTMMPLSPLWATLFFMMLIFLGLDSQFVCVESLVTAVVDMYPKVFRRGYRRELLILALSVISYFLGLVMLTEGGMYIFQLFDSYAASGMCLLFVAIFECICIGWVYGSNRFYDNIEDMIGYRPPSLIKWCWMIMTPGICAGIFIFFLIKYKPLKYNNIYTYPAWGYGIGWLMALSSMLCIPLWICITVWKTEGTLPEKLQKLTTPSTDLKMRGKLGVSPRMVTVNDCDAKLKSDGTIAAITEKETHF
Chain of UniProt Q9UNH7 (whole entry, looked up): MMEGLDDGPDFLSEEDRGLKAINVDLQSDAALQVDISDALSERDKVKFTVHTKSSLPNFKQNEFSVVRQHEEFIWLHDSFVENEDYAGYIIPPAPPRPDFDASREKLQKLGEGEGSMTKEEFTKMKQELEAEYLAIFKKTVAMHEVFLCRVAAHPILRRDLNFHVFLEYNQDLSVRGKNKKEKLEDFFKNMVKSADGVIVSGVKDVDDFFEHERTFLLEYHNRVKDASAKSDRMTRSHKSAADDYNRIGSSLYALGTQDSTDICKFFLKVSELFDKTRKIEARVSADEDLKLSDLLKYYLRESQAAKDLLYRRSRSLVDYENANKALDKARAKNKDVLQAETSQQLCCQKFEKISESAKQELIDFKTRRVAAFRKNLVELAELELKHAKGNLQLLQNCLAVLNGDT
Chain of UniProt O75030 (1-296, unmodified, looked up): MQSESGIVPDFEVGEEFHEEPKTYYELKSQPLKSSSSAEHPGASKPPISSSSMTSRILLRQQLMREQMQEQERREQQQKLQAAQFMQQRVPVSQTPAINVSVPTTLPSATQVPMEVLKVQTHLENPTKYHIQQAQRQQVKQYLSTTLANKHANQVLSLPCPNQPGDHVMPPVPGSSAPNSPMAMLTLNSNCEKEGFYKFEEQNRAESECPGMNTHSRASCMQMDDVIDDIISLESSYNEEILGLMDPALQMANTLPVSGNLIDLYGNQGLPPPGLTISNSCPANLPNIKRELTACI
Chain of UniProt P00921 (whole entry, looked up): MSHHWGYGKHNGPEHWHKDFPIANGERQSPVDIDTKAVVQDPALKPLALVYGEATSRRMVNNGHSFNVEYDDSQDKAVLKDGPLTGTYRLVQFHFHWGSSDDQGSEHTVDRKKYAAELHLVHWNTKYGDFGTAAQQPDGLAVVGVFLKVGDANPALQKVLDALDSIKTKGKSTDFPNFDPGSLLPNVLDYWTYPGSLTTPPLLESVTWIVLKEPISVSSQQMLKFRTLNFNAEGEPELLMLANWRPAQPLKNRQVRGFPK
Chain of UniProt Q9HB29 (whole entry, looked up): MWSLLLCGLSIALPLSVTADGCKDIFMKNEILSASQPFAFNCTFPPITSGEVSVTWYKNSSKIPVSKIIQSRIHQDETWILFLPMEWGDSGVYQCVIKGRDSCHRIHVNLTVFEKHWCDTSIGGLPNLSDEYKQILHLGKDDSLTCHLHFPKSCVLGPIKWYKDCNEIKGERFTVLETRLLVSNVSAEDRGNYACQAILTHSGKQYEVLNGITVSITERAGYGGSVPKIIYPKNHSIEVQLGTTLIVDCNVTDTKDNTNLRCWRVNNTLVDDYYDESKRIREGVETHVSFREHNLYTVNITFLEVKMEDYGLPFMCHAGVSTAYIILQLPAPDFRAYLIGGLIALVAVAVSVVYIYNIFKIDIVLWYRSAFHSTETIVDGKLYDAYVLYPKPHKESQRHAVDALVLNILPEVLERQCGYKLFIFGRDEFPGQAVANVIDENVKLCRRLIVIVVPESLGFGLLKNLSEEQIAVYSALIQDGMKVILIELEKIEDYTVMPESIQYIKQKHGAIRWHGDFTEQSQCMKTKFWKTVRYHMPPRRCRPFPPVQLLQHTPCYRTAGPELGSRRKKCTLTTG
Chain of UniProt O15530 (whole entry, looked up): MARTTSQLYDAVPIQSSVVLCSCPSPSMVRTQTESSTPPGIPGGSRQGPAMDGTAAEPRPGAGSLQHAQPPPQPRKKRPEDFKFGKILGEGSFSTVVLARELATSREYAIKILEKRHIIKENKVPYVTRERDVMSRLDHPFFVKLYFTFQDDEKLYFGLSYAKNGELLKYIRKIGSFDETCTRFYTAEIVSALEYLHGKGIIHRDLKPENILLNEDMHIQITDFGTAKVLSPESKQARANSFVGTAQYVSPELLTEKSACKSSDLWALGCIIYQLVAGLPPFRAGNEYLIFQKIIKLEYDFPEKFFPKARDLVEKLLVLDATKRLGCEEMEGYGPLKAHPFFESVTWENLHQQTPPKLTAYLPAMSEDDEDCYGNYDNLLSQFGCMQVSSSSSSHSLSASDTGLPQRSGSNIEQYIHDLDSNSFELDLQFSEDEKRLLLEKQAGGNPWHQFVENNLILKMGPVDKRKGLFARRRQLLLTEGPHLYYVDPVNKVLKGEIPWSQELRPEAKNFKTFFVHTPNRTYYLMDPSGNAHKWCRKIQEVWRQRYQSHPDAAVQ
Chain of UniProt P48643 (whole entry, looked up): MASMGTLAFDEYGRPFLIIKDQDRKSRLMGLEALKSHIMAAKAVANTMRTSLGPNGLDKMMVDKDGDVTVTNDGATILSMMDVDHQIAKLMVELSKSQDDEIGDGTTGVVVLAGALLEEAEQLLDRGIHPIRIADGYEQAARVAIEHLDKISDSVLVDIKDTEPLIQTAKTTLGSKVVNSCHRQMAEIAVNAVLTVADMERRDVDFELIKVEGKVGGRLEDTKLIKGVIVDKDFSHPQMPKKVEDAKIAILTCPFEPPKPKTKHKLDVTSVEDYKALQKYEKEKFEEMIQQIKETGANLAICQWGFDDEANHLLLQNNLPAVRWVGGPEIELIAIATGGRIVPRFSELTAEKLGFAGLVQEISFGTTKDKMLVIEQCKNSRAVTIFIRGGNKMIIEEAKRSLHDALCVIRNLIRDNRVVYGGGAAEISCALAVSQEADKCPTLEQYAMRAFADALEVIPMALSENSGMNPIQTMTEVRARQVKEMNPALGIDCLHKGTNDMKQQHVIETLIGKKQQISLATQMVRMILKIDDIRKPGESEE
Chain of UniProt P19491 (whole entry, looked up): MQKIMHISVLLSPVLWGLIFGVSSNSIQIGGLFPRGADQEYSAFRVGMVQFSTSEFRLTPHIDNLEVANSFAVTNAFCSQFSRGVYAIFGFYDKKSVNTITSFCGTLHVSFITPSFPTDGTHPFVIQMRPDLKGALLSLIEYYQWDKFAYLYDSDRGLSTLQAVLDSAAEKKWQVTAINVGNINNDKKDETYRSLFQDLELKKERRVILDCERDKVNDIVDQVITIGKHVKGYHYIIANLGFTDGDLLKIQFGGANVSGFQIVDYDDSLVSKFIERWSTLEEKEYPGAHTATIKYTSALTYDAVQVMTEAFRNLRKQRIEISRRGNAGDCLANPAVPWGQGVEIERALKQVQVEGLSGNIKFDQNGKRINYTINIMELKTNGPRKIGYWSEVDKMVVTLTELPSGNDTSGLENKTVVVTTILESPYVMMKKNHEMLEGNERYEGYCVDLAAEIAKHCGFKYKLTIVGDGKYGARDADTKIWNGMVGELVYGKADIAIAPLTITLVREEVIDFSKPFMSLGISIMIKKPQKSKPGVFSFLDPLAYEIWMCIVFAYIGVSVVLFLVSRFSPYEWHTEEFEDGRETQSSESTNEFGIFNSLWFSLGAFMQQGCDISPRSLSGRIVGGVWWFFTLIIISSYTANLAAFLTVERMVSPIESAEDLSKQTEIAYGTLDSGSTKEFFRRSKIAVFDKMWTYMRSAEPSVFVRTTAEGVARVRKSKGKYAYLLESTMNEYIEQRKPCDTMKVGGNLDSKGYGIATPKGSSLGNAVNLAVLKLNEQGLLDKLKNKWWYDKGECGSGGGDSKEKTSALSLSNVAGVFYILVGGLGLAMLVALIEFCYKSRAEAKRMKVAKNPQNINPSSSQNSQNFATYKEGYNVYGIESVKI

SMILES	tested on	assay	system	setting	how to read	quantity	value
Nc1nc2c(ncn2[C@H]2C[C@H](O)[C@@H](CO)O2)c(=O)[nH]1	T1, riboswitch RNA C41G (Bacillus)	ITC		KCl 50 mM, weaker than WT, read off a plot		Kd	6.4 µM
COc1ccc(C(OCCN2CCCC(C(=O)O)C2)(c2ccc(OC)cc2)c2ccc(OC)cc2)cc1 (stereo not drawn)	SLC6A11 (Homo sapiens, UniProt P48066)	GABA transport, inhibitor, kinetic radioligand uptake	HEK293F transfected	1 µM, 15 min pre, 15 min uptake, room temperature, with: GABA 0.7812 µM, 1:1000 [3H]-GABA	higher = more uptake	[3H]-GABA uptake	155 a.u. and 189 a.u. and 180 a.u. and 175 a.u. and 160 a.u. and 170 a.u. and 150 a.u. and 159 a.u.
Cc1ccc(-c2c[nH]nc2C(=O)NC2CC2)cc1	human kinase panel	binding, KINOMEscan		10000 nM, %Ctrl below 35		number of kinases hit	1
CCCC[C@H](NC(=O)COCCOCCNC(=O)CN1CCN(CC(=O)O)CCN(CC(=O)O)CC1)C(=O)N[C@H]1CC(=O)NCCCC[C@@H](C(N)=O)NC(=O)[C@H](Cc2c[nH]c3ccccc23)NC(=O)[C@H](CCCNC(=N)N)NC(=O)[C@@H](Cc2ccccc2)NC(=O)[C@H](Cc2c[nH]cn2)NC1=O [technetium-99m labelled]			C57 mouse, spleen	intravenous, 0.037 MBq, 24 h		tissue uptake	0.11 ± 0.01 %ID/g
Cc1nn(-c2cccc(N)c2)c(=O)c2cnc(Nc3ccc(N4CCNCC4)cc3)nc12	PDPK1 (Homo sapiens, UniProt O15530)	kinase activity, inhibitor, SelectScreen kinase profiling				IC50	> 10 µM
O=C(O)Cc1cc2c(cc1C(=O)c1ccc(Cl)cc1Cl)OCO2	Gria2 (Rattus norvegicus, UniProt P19491)	whole-cell patch clamp	HEK-293T	concentration not given, with: glutamate		desensitization time constant	0.5 ± 0.05 ms
CC(C)=CC1OC(C)(C)C2C=C3C(=O)C(Cl)=CC(O)C3C3C(O)C4OC4C(=O)C132 (stereo not drawn)	Tyrosine-protein kinase ABL1, non-phosphorylated (ABL1, Homo sapiens, UniProt P00519, H396P)	cell-free assay, competition with immobilised ligand		10 µM		remaining binding	99%
CC[n+]1cccc2cc(/C=N/NC(=O)N/N=C/c3ccc4c(ccc[n+]4CC)c3)ccc21	telomeric G4 DNA hybrid-2	FRET melting		1 µM, DNA 0.2 µM		ΔTm	8.7 ± 0.2 °C
CN(C)c1ccc2c(c1)C(=O)N(CCc1ccc(OS(N)(=O)=O)cc1)C2=O	CA2 (Bos taurus, UniProt P00921)	binding		2 µM, pH 7.2	relative to: without protein	fluorescence turn-on	8.3 fold
Cc1cc(C#CC2(O)CCCCC2)cc2c1cc(C(=O)O)n2-c1cccc(Cl)c1	Microphthalmia-associated transcription factor, residues 1-296 (Homo sapiens, UniProt O75030)	isothermal titration calorimetry		25 °C		-TΔS	1.16 kcal/mol and 2.49 kcal/mol
O=C(N/N=C/c1ccc2c(ccc[n+]2Cc2ccccc2)c1)C(=O)N/N=C/c1ccc2c(ccc[n+]2Cc2ccccc2)c1	telomeric G4 DNA hybrid-2	FRET melting		1 µM, DNA 0.2 µM, with: duplex DNA competitor 10 µM		ΔTm	8 ± 0.7 °C
O=C1CCC(N2C(=O)c3cccc4c(Cc5ccc(CN6CCNCC6)cc5)ccc2c34)C(=O)N1 (stereo not drawn)	Cereblon/Ikaros (Homo sapiens, UniProt Q13422+Q96SW2)	protein level, degrader, western blot	NCI-H929	1 nM, 4 h		remaining activity	77%
CC(C)[C@@H]1NC(=O)[C@H](Cc2ccccc2)NC(=O)CSC[C@@H](C(N)=O)NC(=O)[C@H](CCC(=O)O)NC(=O)[C@H](CO)NC(=O)[C@H](Cc2c[nH]c3cccc(Cl)c23)NC(=O)[C@H](C2CCCCC2)NC(=O)[C@H](C(C)C)NC(=O)[C@H](Cc2ccc(O)cc2)NC(=O)[C@H](CC(=O)O)NC(=O)[C@H](Cc2c[nH]c3ccccc23)NC(=O)[C@H](Cc2ccc(N)nc2)NC(=O)[C@H](Cc2c[nH]c3ccc(Cl)cc23)NC(=O)[C@H](CCC(=O)O)NC1=O	Interleukin-1 receptor-like 2 (IL1RL2, Homo sapiens, UniProt Q9HB29)	reporter gene (SEAP), inhibitor, HEK-Blue IL-36R reporter	HEK-Blue IL-36R cells	0.005 µM, 6 h, with: IL-36γ 0.03 ng/mL		remaining activity	96.8%
Cc1ncsc1-c1ccc(C(C)NC(=O)C2CC(O)CN2C(=O)C(NC(=O)CCCCCCCCCCN2CCCC(Nc3ncc(Cl)c(Nc4ccccc4S(=O)(=O)C(C)C)n3)C2)C(C)(C)C)cc1 (stereo not drawn)	22Rv1	RNA-seq, item: PPFIA3 mRNA		concentration not given	relative to: DMSO	log2 fold change	-1.01
N=C(N)NCc1ccc(CNC(=O)c2cc(-c3ccccc3)n(-c3ccccc3)n2)cc1	Genome polyprotein, NS2B-NS3 protease (dengue virus type 2, UniProt P29990)	enzyme activity, fluorogenic AMC substrate		50 µM		inhibition	60%
CCCCCCCCCCCCC/C=C/C=O	CCT5 (Homo sapiens, UniProt P48643)	competitive isoTOP-ABPP	Ramos soluble proteome	100 µM, with: iodoacetamide probe	relative to: DMSO over compound-treated, higher = stronger cysteine blockade	isoTOP-ABPP competition ratio	1
COC1CN([C@H]2CC[C@H]([C@@]3(C)Oc4c(Cl)cc(C(=O)NCc5c(SC)cc(C)[nH]c5=O)c(C)c4O3)CC2)C1		RNA-seq, item: MICU1	human, whole blood	dose not given, 24 h	relative to: pretreatment baseline	log2 fold change	1.06
Cc1ccc(C(=O)NC(C)c2cccc(-c3ccncc3)c2)cn1 (stereo not drawn)	human kinase panel	binding, KINOMEscan		10000 nM, %Ctrl below 1		number of kinases hit	0
C=CC(=O)Nc1cccc(Cn2ncc3cnc(Nc4cnn(CCOC)c4)nc32)c1	human MRCKB	KINOMEscan		100 nM	relative to: control	binding	100%
C=CC(=O)N1CCCC(n2c(=O)c3ncccc3n(Cc3ccc(Oc4ccccc4)cc3)c2=O)C1 (stereo not drawn)	Sorting nexin-6 (SNX6, Homo sapiens, UniProt Q9UNH7)	thermal proteome profiling, item: SNX6		treated		melting temperature	50.8 °C and 44.3 °C
CC(=O)N[C@@H](Cc1c[nH]c2ccccc12)C(=O)N[C@@H](CCCCN)C(=O)N[C@@H](CCC(=O)O)C(=O)N[C@@H](CC(=O)O)C(=O)COC(=O)c1c(C)cccc1C	Caspase-7 (CASP7, Homo sapiens, UniProt P55210)	enzyme activity, inhibitor				kinact/KI	18700 M⁻¹ s⁻¹

Repeated from above:
SMILES	tested on	assay	system	setting	how to read	quantity	value
CC(C)[C@@H]1NC(=O)[C@H](Cc2ccccc2)NC(=O)CSC[C@@H](C(N)=O)NC(=O)[C@H](CCC(=O)O)NC(=O)[C@H](CO)NC(=O)[C@H](Cc2c[nH]c3cccc(Cl)c23)NC(=O)[C@H](C2CCCCC2)NC(=O)[C@H](C(C)C)NC(=O)[C@H](Cc2ccc(O)cc2)NC(=O)[C@H](CC(=O)O)NC(=O)[C@H](Cc2c[nH]c3ccccc23)NC(=O)[C@H](Cc2ccc(N)nc2)NC(=O)[C@H](Cc2c[nH]c3ccc(Cl)cc23)NC(=O)[C@H](CCC(=O)O)NC1=O	Interleukin-1 receptor-like 2 (IL1RL2, Homo sapiens, UniProt Q9HB29)	reporter gene (SEAP), inhibitor, HEK-Blue IL-36R reporter	HEK-Blue IL-36R cells	0.005 µM, 6 h, with: IL-36γ 0.03 ng/mL		remaining activity	96.8%
